Results of several laboratories.
Protocols differ between the studies behind these lines.
Chymotrypsinogen A: Chymotrypsinogen A (Bos taurus, UniProt P00766)
GBA2: Beta-glucosidase (GBA2, Homo sapiens, UniProt Q9HCG7)
Sequence of UniProt Q9HCG7 (whole entry, looked up): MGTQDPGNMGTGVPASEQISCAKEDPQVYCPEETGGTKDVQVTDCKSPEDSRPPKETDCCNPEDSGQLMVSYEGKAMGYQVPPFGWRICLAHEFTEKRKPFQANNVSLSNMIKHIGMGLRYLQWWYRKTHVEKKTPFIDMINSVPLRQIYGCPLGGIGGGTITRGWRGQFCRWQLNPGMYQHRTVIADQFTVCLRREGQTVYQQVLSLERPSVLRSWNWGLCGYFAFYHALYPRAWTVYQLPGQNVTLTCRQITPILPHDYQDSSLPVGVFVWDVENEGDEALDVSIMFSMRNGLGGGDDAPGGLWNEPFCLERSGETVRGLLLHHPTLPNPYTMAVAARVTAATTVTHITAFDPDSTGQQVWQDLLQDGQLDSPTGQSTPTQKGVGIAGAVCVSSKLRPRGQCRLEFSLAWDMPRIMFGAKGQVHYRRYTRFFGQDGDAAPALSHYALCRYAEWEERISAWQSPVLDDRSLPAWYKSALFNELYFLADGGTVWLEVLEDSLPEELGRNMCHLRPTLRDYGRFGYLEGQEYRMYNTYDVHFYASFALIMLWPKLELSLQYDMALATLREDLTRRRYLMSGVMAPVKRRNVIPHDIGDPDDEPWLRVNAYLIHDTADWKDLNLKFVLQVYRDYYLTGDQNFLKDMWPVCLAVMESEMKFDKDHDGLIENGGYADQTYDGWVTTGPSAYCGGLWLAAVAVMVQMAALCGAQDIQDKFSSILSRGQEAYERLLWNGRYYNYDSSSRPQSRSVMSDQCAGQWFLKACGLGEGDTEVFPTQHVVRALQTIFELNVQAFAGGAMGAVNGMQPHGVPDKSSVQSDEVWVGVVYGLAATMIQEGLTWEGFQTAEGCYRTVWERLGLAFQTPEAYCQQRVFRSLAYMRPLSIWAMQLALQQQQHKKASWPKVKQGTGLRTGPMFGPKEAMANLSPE
Sequence of UniProt P35346 (whole entry, unmodified, looked up): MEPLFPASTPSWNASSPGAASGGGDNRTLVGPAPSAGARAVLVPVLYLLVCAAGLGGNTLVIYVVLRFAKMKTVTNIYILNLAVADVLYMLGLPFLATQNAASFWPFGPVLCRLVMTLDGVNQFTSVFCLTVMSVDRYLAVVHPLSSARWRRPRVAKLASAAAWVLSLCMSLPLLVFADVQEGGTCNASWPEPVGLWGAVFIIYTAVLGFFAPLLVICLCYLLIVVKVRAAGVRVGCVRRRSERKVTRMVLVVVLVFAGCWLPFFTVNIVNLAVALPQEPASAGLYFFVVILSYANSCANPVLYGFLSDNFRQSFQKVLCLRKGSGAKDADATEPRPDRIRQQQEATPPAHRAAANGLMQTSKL
Sequence of UniProt Q07869 (whole entry, looked up): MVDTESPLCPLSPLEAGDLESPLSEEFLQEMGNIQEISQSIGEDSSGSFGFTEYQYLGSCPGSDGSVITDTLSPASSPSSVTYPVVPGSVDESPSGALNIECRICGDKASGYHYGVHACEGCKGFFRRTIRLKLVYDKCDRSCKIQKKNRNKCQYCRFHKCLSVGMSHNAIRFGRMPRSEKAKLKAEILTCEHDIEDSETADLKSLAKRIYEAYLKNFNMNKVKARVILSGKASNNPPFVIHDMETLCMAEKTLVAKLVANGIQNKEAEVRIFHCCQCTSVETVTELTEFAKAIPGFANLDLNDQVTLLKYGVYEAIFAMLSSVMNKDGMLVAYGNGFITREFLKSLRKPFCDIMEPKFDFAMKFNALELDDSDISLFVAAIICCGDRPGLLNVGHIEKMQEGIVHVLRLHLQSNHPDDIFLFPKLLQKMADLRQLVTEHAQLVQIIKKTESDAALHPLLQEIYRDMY
Sequence of UniProt P49720 (whole entry, looked up): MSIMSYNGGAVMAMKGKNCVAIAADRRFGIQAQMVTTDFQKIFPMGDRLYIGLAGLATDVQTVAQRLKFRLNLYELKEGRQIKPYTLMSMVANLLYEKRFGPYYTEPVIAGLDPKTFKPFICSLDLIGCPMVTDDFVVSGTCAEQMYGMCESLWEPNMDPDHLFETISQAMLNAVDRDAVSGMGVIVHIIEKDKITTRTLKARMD
Sequence of UniProt Q9Y243 (whole entry, looked up): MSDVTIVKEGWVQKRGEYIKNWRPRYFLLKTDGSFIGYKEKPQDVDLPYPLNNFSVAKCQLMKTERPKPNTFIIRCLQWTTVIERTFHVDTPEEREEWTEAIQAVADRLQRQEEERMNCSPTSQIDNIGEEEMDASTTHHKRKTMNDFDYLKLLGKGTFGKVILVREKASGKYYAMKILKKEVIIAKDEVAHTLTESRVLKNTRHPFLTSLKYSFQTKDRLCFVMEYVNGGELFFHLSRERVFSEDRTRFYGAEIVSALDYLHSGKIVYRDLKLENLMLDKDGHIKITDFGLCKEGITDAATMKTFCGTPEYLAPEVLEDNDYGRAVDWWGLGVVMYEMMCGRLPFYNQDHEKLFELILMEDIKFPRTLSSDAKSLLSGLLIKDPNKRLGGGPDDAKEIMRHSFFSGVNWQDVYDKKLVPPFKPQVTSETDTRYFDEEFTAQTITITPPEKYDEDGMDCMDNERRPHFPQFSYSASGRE
Sequence of UniProt O14757 (whole entry, looked up): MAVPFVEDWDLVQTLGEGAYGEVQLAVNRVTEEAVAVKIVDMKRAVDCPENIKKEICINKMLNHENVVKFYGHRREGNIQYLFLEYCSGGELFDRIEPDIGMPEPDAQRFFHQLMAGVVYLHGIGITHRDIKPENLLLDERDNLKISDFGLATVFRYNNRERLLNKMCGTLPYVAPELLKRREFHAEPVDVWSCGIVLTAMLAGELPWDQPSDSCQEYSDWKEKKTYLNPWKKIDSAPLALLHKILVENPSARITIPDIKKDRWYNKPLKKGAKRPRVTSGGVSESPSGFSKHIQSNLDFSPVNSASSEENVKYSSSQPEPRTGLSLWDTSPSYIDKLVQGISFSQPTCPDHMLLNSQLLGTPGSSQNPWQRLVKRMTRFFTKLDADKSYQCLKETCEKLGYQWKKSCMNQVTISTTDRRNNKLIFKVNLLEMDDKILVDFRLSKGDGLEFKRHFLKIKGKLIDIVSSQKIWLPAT
Sequence of UniProt Q99436 (whole entry, looked up): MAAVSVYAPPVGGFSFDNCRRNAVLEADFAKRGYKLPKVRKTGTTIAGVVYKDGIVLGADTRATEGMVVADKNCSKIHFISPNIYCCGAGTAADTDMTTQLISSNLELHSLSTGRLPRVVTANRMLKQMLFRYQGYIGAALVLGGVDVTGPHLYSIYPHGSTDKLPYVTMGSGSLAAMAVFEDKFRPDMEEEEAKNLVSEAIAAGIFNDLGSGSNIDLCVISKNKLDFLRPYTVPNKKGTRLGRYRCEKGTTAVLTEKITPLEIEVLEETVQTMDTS

For `Cc1nn(-c2cccc(N)c2)c(=O)c2cnc(Nc3ccc(N4CCNCC4)cc3)nc12`, the IC50 was 2640 nM (AKT3 (Homo sapiens, UniProt Q9Y243); SelectScreen kinase).
The IC50 of `Nc1ncc(-c2cc(-c3cnn(CC(F)(F)F)c3)ncc2F)nc1C(=O)NC1CNCC(F)C1` (centres unmarked) is reported as 140 nM (CHEK1 (Homo sapiens, UniProt O14757); enzyme activity, inhibitor, radiometric).
For `O=C(Nc1ccccc1OC1CCCC1)C(C(F)(F)F)C(F)(F)F`, the IC50 was 14000 nM (Chymotrypsinogen A; enzyme activity, inhibitor, fluorescence).
With `CC(C)=CCC/C(C)=C/CC/C(C)=C/CN1C[C@@H](O)[C@H](O)[C@H](O)[C@@H]1CO` the IC50 was 2.7 nM (GBA2; inhibitor, 4MU-β-D-glucopyranoside; HEK293T homogenates overexpressing GBA2).
For `CCOc1cc(CN2CC3(CC(N4CCC(C(=O)O)CC4)=NO3)C2)cc(OCC)c1-c1ccc(F)cc1`, the IC50 was 7410 nM (SSTR5 (Homo sapiens, UniProt P35346, L96A); cAMP level, antagonist, GloSensor; AD293; L96A mutant, bandwidth 2.60, together with: CST17 EC80 and forskolin).
`CCC(Oc1cccc(Cc2c(C)n(C)c3cc(C(=O)NC(C)c4cccc(C(C)(C)C)c4)ccc23)c1)C(=O)O` (mixture of isomers) has an IC50 of 48500 nM (Peroxisome proliferator-activated receptor alpha, ligand-binding domain (PPARA, Homo sapiens, UniProt Q07869); reporter gene, luciferase reporter; HEK293T, Gal4-PPARα LBD).
The IC50 of `CN1CCCC1C(=O)NC(Cc1ccc(-n2cccn2)cc1)B(O)O` (centres unmarked) is reported as greater than 10000 nM (Proteasome subunit beta type-3/PSMB7 (Homo sapiens, UniProt P49720+Q99436); β2c trypsin-like activity, inhibitor; constitutive proteasome, together with: Ac-KQL-AMC).
With `CCCCCN1C[C@H](O)[C@@H](O)[C@H](O)[C@@H]1CO` the IC50 was 250 nM (GBA2; inhibitor, 4MU-β-D-glucopyranoside; HEK293T homogenates overexpressing GBA2).
`COC1CN([C@H]2CC[C@H]([C@@]3(C)Oc4c(Cl)cc(C(=O)NCc5c(SC)cc(C)[nH]c5=O)c(C)c4O3)CC2)C1`: “log2 fold change” 1.05 (RNA-seq, item: UBAP1; human, whole blood; dose not given, 24 h; relative to: pretreatment baseline).
The IC50 of `CCCCCCCN1C[C@H](O)[C@@H](O)[C@H](O)[C@H]1CO` is reported as 45 nM (GBA2; inhibitor, 4MU-β-D-glucopyranoside; HEK293T homogenates overexpressing GBA2).
The IC50 of `O=C(Nc1cccc(Cl)c1)C(C(F)(F)F)C(F)(F)F` is reported as 3400 nM (Chymotrypsinogen A; enzyme activity, inhibitor, fluorescence).

Repeated from above:
`CCC(Oc1cccc(Cc2c(C)n(C)c3cc(C(=O)NC(C)c4cccc(C(C)(C)C)c4)ccc23)c1)C(=O)O` (mixture of isomers) has an IC50 of 48500 nM (Peroxisome proliferator-activated receptor alpha, ligand-binding domain (PPARA, Homo sapiens, UniProt Q07869); reporter gene, luciferase reporter; HEK293T, Gal4-PPARα LBD).
